Published values pooled from the literature.
Several values in a cell are separate wells, animals, samples, runs or records. ± gives the spread as reported.
TOP2A: DNA topoisomerase 2-alpha (TOP2A, Homo sapiens, UniProt P11388)
Sequence of UniProt P11388 (whole entry, looked up): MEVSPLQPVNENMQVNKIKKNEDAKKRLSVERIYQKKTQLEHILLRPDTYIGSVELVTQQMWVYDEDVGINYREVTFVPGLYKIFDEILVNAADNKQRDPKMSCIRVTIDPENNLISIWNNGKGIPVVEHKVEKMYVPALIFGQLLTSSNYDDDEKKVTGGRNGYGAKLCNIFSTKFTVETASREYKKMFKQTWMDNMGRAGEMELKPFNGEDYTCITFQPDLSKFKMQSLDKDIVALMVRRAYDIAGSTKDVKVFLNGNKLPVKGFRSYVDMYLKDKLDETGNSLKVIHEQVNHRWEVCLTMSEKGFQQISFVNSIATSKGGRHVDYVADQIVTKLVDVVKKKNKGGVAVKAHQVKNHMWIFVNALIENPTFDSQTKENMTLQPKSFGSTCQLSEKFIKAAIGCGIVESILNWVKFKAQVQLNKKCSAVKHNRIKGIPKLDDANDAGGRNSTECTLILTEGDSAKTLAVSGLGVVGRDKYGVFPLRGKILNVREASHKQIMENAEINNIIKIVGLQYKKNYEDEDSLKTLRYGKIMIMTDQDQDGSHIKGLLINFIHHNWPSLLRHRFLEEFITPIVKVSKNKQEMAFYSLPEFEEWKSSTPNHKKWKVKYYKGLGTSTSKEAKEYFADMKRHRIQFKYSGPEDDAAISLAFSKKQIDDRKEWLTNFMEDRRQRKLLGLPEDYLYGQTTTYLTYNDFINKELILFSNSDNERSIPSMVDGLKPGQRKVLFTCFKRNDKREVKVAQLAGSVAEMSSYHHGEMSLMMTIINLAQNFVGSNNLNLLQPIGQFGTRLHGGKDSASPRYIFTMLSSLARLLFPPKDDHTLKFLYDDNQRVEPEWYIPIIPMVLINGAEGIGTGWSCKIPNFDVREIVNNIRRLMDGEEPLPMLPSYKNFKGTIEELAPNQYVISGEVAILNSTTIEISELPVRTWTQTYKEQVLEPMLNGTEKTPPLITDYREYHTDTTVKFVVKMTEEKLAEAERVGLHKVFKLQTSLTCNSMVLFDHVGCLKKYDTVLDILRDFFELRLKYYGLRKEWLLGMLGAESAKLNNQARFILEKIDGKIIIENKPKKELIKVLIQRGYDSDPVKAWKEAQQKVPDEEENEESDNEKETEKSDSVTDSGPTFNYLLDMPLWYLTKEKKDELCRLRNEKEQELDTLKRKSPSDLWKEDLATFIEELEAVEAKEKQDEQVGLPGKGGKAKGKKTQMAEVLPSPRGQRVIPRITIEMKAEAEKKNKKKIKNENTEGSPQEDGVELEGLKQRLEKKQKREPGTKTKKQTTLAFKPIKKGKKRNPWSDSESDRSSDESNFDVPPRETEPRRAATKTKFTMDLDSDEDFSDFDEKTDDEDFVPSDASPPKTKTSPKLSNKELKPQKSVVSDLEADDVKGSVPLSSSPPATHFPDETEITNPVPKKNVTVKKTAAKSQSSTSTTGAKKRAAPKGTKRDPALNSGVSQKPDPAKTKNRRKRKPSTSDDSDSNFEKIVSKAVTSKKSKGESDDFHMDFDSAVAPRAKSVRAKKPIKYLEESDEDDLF
PKN1: Serine/threonine-protein kinase N1 (PKN1, Homo sapiens, UniProt Q16512)
Sequence of UniProt Q16512 (whole entry, looked up): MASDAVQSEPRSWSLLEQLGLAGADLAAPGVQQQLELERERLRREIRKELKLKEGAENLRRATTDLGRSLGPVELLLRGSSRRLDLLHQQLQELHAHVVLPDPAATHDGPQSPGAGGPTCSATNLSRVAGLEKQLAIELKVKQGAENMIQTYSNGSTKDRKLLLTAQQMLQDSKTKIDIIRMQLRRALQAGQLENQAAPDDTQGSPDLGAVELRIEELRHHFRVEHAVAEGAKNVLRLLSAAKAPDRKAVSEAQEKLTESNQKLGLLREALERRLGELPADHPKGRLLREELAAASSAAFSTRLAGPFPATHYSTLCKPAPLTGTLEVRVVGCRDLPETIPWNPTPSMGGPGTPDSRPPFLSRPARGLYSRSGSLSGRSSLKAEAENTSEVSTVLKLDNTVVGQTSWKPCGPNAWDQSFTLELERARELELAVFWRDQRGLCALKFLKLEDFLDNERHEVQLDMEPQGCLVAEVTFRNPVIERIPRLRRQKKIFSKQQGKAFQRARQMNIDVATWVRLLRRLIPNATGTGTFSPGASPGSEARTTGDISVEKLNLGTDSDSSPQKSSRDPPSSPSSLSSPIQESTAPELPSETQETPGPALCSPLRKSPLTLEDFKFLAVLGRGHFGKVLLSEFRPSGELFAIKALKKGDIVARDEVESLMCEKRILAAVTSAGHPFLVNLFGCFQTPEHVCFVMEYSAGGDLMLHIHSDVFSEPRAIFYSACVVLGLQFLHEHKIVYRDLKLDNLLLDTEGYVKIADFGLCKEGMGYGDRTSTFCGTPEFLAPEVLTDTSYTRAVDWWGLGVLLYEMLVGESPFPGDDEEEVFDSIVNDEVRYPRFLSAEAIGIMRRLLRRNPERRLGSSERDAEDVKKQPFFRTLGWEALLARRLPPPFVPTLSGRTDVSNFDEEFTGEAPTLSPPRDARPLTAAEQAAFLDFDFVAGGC
Pteridine reductase 1: Pteridine reductase 1 (Leishmania major, UniProt Q01782)
Sequence of UniProt Q01782 (whole entry, looked up): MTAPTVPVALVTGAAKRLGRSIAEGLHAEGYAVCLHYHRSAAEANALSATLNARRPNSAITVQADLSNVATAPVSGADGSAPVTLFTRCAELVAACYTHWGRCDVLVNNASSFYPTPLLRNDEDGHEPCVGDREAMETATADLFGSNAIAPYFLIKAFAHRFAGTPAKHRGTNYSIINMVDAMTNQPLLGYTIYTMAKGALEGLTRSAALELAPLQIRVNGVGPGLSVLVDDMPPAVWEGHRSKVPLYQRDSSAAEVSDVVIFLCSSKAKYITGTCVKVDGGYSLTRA
T1: DNA junction; chain CGCAATCCTGAGCACG; chain CGTGCTCACCGAATGC; chain GCATTCGGACTATGGC; chain GCCATAGTGGATTGCG
T2: G-quadruplex RNA, intermolecular parallel G4 (Homo sapiens); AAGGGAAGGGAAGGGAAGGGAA
Sequence of UniProt Q16774 (whole entry, looked up): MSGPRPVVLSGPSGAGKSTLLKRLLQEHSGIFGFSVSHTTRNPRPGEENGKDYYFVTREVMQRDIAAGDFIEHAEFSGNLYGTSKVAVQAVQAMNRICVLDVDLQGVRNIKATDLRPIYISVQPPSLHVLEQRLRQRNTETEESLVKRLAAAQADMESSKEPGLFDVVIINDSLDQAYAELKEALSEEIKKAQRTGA
Sequence of UniProt Q8NFU1 (whole entry, looked up): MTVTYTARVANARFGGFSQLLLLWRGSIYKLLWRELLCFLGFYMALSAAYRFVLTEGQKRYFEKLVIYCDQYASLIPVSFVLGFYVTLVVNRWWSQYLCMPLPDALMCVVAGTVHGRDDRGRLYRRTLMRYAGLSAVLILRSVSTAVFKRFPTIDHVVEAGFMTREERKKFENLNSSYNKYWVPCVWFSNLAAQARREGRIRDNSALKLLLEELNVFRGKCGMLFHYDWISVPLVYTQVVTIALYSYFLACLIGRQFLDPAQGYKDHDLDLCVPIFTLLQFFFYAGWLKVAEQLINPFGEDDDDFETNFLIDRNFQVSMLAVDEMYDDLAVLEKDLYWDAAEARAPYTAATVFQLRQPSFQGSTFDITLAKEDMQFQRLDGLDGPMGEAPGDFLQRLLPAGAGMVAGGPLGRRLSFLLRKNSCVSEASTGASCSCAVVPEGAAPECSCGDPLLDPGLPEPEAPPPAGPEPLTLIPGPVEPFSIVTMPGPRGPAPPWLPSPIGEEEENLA
Sequence of UniProt Q64663 (whole entry, unmodified, looked up): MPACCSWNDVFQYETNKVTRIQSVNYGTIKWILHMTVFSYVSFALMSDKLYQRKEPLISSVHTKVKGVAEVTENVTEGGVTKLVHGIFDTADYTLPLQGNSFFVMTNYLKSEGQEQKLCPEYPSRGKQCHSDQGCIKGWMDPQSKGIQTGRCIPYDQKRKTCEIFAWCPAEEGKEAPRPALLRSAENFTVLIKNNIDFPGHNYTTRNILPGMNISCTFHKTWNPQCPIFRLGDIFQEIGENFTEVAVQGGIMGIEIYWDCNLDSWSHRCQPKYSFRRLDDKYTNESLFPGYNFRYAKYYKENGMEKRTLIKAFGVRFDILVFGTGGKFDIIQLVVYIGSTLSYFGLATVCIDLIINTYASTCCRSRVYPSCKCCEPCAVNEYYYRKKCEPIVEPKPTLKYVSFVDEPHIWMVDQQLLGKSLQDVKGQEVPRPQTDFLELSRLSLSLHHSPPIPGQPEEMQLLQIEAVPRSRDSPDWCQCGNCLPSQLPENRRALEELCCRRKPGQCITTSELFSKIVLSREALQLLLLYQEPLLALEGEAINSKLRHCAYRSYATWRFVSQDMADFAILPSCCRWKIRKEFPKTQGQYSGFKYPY
Sequence of UniProt P51575 (whole entry, unmodified, looked up): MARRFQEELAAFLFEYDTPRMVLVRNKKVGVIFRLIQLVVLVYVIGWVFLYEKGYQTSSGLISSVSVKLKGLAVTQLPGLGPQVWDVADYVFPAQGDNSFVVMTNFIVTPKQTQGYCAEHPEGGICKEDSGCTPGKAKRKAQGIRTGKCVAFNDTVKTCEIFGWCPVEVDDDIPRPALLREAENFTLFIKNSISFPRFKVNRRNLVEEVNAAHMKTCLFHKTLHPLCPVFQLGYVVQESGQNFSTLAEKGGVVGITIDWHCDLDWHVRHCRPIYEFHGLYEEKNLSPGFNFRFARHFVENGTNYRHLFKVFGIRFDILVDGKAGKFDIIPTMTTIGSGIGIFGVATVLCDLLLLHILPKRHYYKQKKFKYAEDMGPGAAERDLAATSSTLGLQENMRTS
Sequence of UniProt Q96SW2 (whole entry, looked up): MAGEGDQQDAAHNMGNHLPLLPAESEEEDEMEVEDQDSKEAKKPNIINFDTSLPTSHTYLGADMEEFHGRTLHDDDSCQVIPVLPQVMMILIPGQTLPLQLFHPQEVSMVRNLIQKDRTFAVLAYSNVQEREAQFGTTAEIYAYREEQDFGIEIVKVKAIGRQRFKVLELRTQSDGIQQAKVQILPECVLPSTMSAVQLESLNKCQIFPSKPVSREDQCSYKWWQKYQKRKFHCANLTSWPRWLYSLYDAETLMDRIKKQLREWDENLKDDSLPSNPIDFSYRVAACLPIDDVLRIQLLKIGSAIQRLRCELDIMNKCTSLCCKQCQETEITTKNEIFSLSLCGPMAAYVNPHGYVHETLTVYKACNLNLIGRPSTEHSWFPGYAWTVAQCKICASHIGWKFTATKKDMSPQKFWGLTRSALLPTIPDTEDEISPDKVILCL

| SMILES | target | test | test system | conditions | scale | measurement | result |
| --- | --- | --- | --- | --- | --- | --- | --- |
| O=C(OC[C@H]1O[C@@H](OC(=O)c2cc(OS(=O)(=O)[O-])c(O)c(OS(=O)(=O)[O-])c2)[C@H](OC(=O)c2cc(OS(=O)(=O)[O-])c(O)c(OS(=O)(=O)[O-])c2)[C@@H](OC(=O)c2cc(OS(=O)(=O)[O-])c(O)c(OS(=O)(=O)[O-])c2)[C@@H]1OC(=O)c1cc(OS(=O)(=O)[O-])c(O)c(OS(=O)(=O)[O-])c1)c1cc(OS(=O)(=O)[O-])c(O)c(OS(=O)(=O)[O-])c1.[Na+].[Na+].[Na+].[Na+].[Na+].[Na+].[Na+].[Na+].[Na+].[Na+] | Neutrophil elastase (ELANE, Homo sapiens, UniProt P08246) | enzyme activity, inhibitor |  | with: chromogenic substrate |  | Hill slope | 0.9 |
| Nc1nc2c(ncn2[C@@H]2O[C@@H]3COP(=O)(O)O[C@H]4[C@@H](O)[C@H](n5cnc6c(=O)[nH]c(N)nc65)O[C@@H]4COP(=O)(O)O[C@H]3[C@H]2O)c(=O)[nH]1 | Cell cycle histidine kinase CckA, CA domain (Caulobacter vibrioides, UniProt Q9X688) | ITC |  | with: AMPPNP 5 mM |  | ΔS | 28.2 cal/mol/K |
| Nc1ncnc2c1ncn2[C@@H]1O[C@H](COP(=O)(O)CP(=O)(O)OP(=O)(O)O)[C@@H](O)[C@H]1O | P2X purinoceptor 1 (P2RX1, Homo sapiens, UniProt P51575, K215A) | calcium influx |  | 100 nM | baseline: ionomycin response | calcium influx | 72.1% and 52.2% |
| O=c1nc(SCc2cc(F)cc(C(F)(F)F)c2)nc(SCc2ccc3nc(Cl)ccc3c2)[nH]1 | TOP2A | DNA cleavage, competition with etoposide |  | 31.25 µM, with: etoposide 50 µM |  | linear DNA | 11.4% and 9.55% |
| Cc1c[nH]c2nc(Nc3ccc(N4CCN(C)CC4)c(F)c3)nc(-c3cccc(CC#N)c3)c12 | PKN1 | inhibitor |  |  |  | Hill slope | -0.779 |
| CC(=O)N[C@H](C(=O)N1C[C@H](O)C[C@H]1C(=O)NCc1ccc(-c2scnc2C)cc1)C(C)(C)SCCCCCCNC(=O)C[C@@H]1N=C(c2ccc(Cl)cc2)c2c(sc(C)c2C)-n2c(C)nnc21 | BRD2/VHL, BD1; with VCB (Homo sapiens, UniProt P25440+P40337) | ternary complex binding, ITC |  | 25 °C, unit not given, with: VHL-ElonginB-ElonginC, PROTAC:Brd2^BD1 | baseline: binary binding to VHL-ElonginB-ElonginC, positive = cooperative | ΔpKd ternary minus binary | 0.1 ± 0.2 |
| CC[n+]1c(-c2ccccc2)c2cc(N)ccc2c2ccc(N)cc21 | T1, DNA junction | fluorescence enhancement |  | 20 °C, Mg2+ 12.5 mM, ethidium displacement |  | binding | binds |
| COCCC(=O)N1CCC(Oc2ccccc2)C1 (centres unmarked) | Histone-lysine N-methyltransferase SETDB1, triple tudor domain (SETDB1, Homo sapiens, UniProt Q15047) | binding, affinity selection mass spectrometry |  |  | baseline: other proteins in batch | fold enrichment | 0.75 |
| Cc1nc(CSc2nc(SCc3cc(F)cc(C(F)(F)F)c3)nc(=O)[nH]2)cs1 | TOP2A | decatenation |  | 125 µM, replicate 2 |  | decatenated DNA | 7% |
| CC1=CC(=O)c2ccccc2C1=O | TGM2 (Homo sapiens, UniProt P21980) | enzyme activity, inhibitor |  | concentration not given, with: DTT | baseline: without DTT over with DTT | potency reduction | ~23 fold |
| O=C1CCC(N2C(=O)C=C(Nc3cccc(C4(NCCc5ccc(C(F)(F)F)c(Cl)c5)CCCC4)c3)C2=O)C(=O)N1 (centres unmarked) | Cereblon/Ikaros (Homo sapiens, UniProt Q13422+Q96SW2) | protein degradation, degrader, HiBiT luminescence | Jurkat |  |  | Dmax | 83% |
| O=c1nc(SCc2ccc(C(F)(F)F)cc2)nc(SCc2ccc3sccc3c2)[nH]1 | TOP2A | decatenation |  | 31.25 µM, replicate 1 |  | decatenated DNA | 0% |
| CC(=O)Nc1ccc(O)cc1 | BRD4 (Homo sapiens, UniProt O60885) | 19F NMR, item: tyrosine 97 |  | 746 µM | baseline: free protein | chemical shift change | -0.22 ppm |
| O=c1nc(SCc2cc(F)cc(C(F)(F)F)c2)nc(SCc2nc3ccccc3[nH]2)[nH]1 | TOP2A | decatenation |  | 125 µM, replicate 1 |  | decatenated DNA | 0% |
| Nc1nc2c(ncn2[C@@H]2O[C@H](COP(=O)(O)O)[C@@H](O)[C@H]2O)c(=O)[nH]1 | GUK1 (Homo sapiens, UniProt Q16774) | enzyme activity, NADH-coupled |  | 7.812 µM, with: NaCl 10 mM |  | reaction velocity | 0.00298 µM/s and 0.0129 µM/s and 0.02 µM/s |
| Nc1ncnc2c1ncn2[C@@H]1O[C@H](COP(=O)(O)OP(=O)(O)OP(=O)(O)O)[C@@H](O)[C@H]1O | P2X purinoceptor 7 (P2rx7, Rattus norvegicus, UniProt Q64663, I214A) | ion current, agonist, two-electrode voltage clamp | Xenopus laevis oocytes | 300 µM | baseline: highest concentration response | normalized current | 0.933 and 0.916 and 0.921 |
| Cc1c(COc2ccc(CN3CCCCC3C(=O)NCCNC(=O)CN(C)CCCC34CCC(c5ccccc53)c3ccccc34)cc2Br)cccc1-c1ccccc1 (centres unmarked) | CD274 (Homo sapiens, UniProt Q9NZQ7) | degrader, western blot | HL-60 | 1 µM |  | degradation | < 5% |
| Cc1cc(Nc2cc3ncccc3c(N[C@@H]3C[C@H]4CC[C@@H](C3)N4CCC#N)n2)n[nH]1 | non-JAK kinases | KINOMEscan competition binding |  | 1 µM, inhibition at least 90% |  | number of kinases bound | 25 |
| CCCC(=O)Nc1ncnc2c1ncn2[C@@H]1O[C@@H]2COP(=O)(O)O[C@H]2[C@H]1O | anti-cGMP antibody | antibody binding, competitive cGMP EIA |  | concentration not given, acetylated samples | baseline: EC50 cGMP over EC50 cpd, higher = stronger binding | relative binding affinity | 0.0001 |
| COc1cc(-c2cc(C(C)=O)n3ccccc23)cc(OC)c1Cn1ccnc1 | PHIP, BD2 (Homo sapiens, UniProt Q8WWQ0) |  |  |  |  | ΔTm | -2 °C |
| Cc1cc2c(cc1N1C(=O)c3cccc4c(Cl)ccc(c34)C1=O)n(C)c(=O)n2C | BRD9 (Homo sapiens, UniProt Q9H8M2) |  |  | 10 µM |  | delta Tm | -2.9 °C |

| SMILES | target | test | test system | conditions | scale | measurement | result |
| --- | --- | --- | --- | --- | --- | --- | --- |
| COC(=O)C1CCN(C(=O)c2ccc(N(CCCO)Cc3cnc4nc(N)nc(N)c4n3)cc2)CC1 | Pteridine reductase 1 |  |  | hDHFR weight 10 | baseline: LmPTR1, LmDHFR over hDHFR, 1.0 selective, 0.0 non-selective | partition index | 0.9 |
| S=C(NCc1ccc2c(c1)OCO2)N1CCN(c2ncnc3c2oc2ccccc23)CC1 | AXL (Homo sapiens, UniProt P30530) | GAS6-stimulated phosphorylation, inhibitor, Western blot | maturing neuronal cultures | 1 µM, 1 h, 4-week cultures, with: GAS6 |  | AXL phosphorylation | decreased |
| O=C(COP(=O)(O)O)[C@@H](O)[C@H](O)[C@H](O)COP(=O)(O)O | NADH-ubiquinone oxidoreductase 75 kDa subunit, mitochondrial (Homo sapiens, UniProt P28331) | thermal proteome profiling, item: NDUFS1 | HepG2 cell lysate | concentration not given, 57 over 37 °C, mean | baseline: compound over control | thermal stability ratio | 0.517 |
| O=c1nc(SCc2cc(F)cc(C(F)(F)F)c2)nc(SCc2cccc(C(F)(F)F)c2)[nH]1 | TOP2A | decatenation |  | 7.8 µM, replicate 2 |  | decatenated DNA | 92.9% |
| CC[C@@H]1[C@H](F)C(=O)N[C@@H]1COc1nccc2cc(C(N)=O)c(OC)cc12 | PHKG2 (Homo sapiens, UniProt P15735) | ATP-site probe binding, ActivX profiling | THP-1 cell lysate | 0.04 mM, Lys1 site |  | inhibition | 3.7% |
| C=CC(=O)N1CCC[C@@H](n2nc(-c3ccc(Oc4ccccc4)cc3)c3c(N)ncnc32)C1 | FES (Homo sapiens, UniProt P07332) |  |  | 0.1 µM |  | remaining activity | 55% |
| C[C@@H]1C[C@H](Nc2ccccc2)c2cc(F)ccc2N1C(=O)c1ccc(C(F)(F)F)nc1 | Ecdysone receptor (Aedes albopictus, UniProt Q9U3Y4) | ligand binding, inhibitor | intact cells | with: [3H]ponasterone A | direction not given | pIC50 Z-score | 0.14 |
| COc1cc(-c2cncc3c2CN(C)Cc2cc(N4CCNCC4)ccc2-3)cc(OC)c1OC | FGFR1 (Homo sapiens, UniProt P11362) | kinase activity |  | 1 µM, human enzyme, with: ATP 10 µM | baseline: DMSO control | remaining activity | 87% |
| CC(C)(Oc1ccc(Cl)cc1)C(=O)O | PPARG (Homo sapiens, UniProt P37231) | reporter gene, agonist, β-lactamase reporter | HEK293-H cells | 24 h, nominal concentration | baseline: 10% of rosiglitazone maximum effect | EC10 | 11.3 µM |
| CCN(Cc1cnc2nc(N)nc(N)c2n1)c1ccc(C(=O)N2CCC(C(=O)OC)CC2)cc1 | Pteridine reductase 1 |  |  | hDHFR weight 10 | baseline: LmPTR1, LmDHFR over hDHFR, 1.0 selective, 0.0 non-selective | partition index | 0.49 |
| O=C(O)C1=CCNCC1 | Bestrophin-2a (BEST2, Homo sapiens, UniProt Q8NFU1) | whole-cell patch clamp | HEK293 transiently expressing channel | concentration not given, membrane potential -60 mV |  | current density | -135 pA/pF and -281 pA/pF and -116 pA/pF and -149 pA/pF and -103 pA/pF |
| NNc1ccc2ccccc2c1 | Secernin-3 (Homo sapiens, UniProt Q0VDG4) | gel-based ABPP | HEK-293T lysate |  | baseline: IC50 AMD1 over Secernin-3 | selectivity ratio | 35 fold |
| CN(C)c1ccc(Nc2c3ccc(NC(=O)CCN4CCCC4)cc3nc3cc(NC(=O)CCN4CCCC4)ccc23)cc1 | T2, G-quadruplex RNA, intermolecular parallel G4 (Homo sapiens) | CD melting |  | Tm increased |  | binding | binds |
| CCCCNc1ncc2c(-c3ccc(CN4CCN(C)CC4)cc3)cn([C@H]3CC[C@H](O)CC3)c2n1 | PKN1 | inhibitor |  |  |  | Hill slope | -0.735 |
| Cc1ccccc1C1CC(=O)c2c(C)nc(N)nc2C1 (centres unmarked) | DDB1 (Homo sapiens, UniProt Q16531) | binding, affinity selection mass spectrometry |  |  | baseline: other proteins in batch | fold enrichment | 0.895 |
| N#Cc1ccc2c(-c3ccncc3)c(-c3ccc(F)cc3)nn2c1 | Mitogen-activated protein kinase MKC1 (MKC1, Candida albicans, UniProt P43068) | kinase binding, competitor, MIB/MS competition, item: MKC1 | Candida albicans cell lysate | 1 µM | baseline: DMSO | log2 fold change | 0.309 |
| C=CC(=O)N1CCN(c2nc(OC[C@@H]3CCCN3C)nc3c(F)c(-c4nc(N)cc(C)c4C(F)(F)F)c(Cl)cc23)[C@@H](C)C1 | GTPase KRas, GDP-bound (KRAS, Homo sapiens, UniProt P01116, G12V) | binding, surface plasmon resonance |  |  |  | association rate constant | 94400 ± 22000 M⁻¹ s⁻¹ |
| Cn1cc(C2CCCCC2)c2cc(CCOCCCCCc3ccccc3)ccc21 | ATP2A2 (Sus scrofa, UniProt P11607) | ATPase Vmax increase, activator | pig microsomes | 0.1 to 50 µM | baseline: vehicle | Emax | 19 to 25% |
| O=c1nc(SCc2cc(F)cc(C(F)(F)F)c2)nc(SCc2ccc3ccccc3n2)[nH]1 | TOP2A | decatenation |  | 7.8 µM, replicate 2 |  | decatenated DNA | 100% |
| O=C(O)c1ccc(Nc2ncc3c(n2)-c2ccc(Cl)cc2C(c2c(F)cccc2F)=NC3)cc1 | BrSK1(h) | kinase activity |  | 1 µM |  | remaining activity | 92% |

Some of these lines once more:
| SMILES | target | test | test system | conditions | scale | measurement | result |
| --- | --- | --- | --- | --- | --- | --- | --- |
| Cc1cc2c(cc1N1C(=O)c3cccc4c(Cl)ccc(c34)C1=O)n(C)c(=O)n2C | BRD9 (Homo sapiens, UniProt Q9H8M2) |  |  | 10 µM |  | delta Tm | -2.9 °C |
| COC(=O)C1CCN(C(=O)c2ccc(N(CCCO)Cc3cnc4nc(N)nc(N)c4n3)cc2)CC1 | Pteridine reductase 1 |  |  | hDHFR weight 10 | baseline: LmPTR1, LmDHFR over hDHFR, 1.0 selective, 0.0 non-selective | partition index | 0.9 |
| S=C(NCc1ccc2c(c1)OCO2)N1CCN(c2ncnc3c2oc2ccccc23)CC1 | AXL (Homo sapiens, UniProt P30530) | GAS6-stimulated phosphorylation, inhibitor, Western blot | maturing neuronal cultures | 1 µM, 1 h, 4-week cultures, with: GAS6 |  | AXL phosphorylation | decreased |
